Results from different studies.
Each line is one published result; not all experiments were run side by side. Values joined by “and” are separate records of one study, mostly repeats; a detail may differ.
FURIN: Furin (FURIN, Homo sapiens, UniProt P09958)
Sequence of UniProt P09958 (whole entry, looked up): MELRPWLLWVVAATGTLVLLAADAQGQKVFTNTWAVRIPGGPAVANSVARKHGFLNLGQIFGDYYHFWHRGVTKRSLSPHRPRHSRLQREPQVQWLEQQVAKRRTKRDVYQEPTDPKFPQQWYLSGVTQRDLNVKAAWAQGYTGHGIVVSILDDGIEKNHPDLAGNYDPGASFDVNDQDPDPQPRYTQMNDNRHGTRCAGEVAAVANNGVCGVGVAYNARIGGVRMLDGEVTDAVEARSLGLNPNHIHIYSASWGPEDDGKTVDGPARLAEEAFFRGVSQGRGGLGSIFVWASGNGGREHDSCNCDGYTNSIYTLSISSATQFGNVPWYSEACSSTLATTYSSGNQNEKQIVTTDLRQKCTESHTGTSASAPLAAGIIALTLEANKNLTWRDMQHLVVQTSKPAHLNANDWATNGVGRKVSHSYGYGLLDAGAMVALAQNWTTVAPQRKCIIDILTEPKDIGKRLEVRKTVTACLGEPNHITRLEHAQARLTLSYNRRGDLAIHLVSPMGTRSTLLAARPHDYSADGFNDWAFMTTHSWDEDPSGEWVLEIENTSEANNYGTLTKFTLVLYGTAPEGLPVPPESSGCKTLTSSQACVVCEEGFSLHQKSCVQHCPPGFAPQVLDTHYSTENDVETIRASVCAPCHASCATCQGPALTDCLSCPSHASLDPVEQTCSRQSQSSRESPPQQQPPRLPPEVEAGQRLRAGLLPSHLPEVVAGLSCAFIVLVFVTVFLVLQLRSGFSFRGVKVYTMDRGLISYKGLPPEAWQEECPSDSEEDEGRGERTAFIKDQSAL
CA1: Carbonic anhydrase 1 (CA1, Homo sapiens, UniProt P00915)
Sequence of UniProt P00915 (whole entry, looked up): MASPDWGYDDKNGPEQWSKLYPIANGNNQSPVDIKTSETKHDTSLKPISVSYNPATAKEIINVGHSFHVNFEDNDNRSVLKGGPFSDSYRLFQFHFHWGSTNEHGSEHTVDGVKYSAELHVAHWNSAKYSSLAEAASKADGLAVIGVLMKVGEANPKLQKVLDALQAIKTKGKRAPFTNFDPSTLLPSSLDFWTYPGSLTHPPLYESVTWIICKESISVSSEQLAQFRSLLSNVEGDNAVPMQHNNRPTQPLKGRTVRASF
TMEM97: Sigma intracellular receptor 2 (TMEM97, Homo sapiens, UniProt Q5BJF2)
Sequence of UniProt Q5BJF2 (whole entry, looked up): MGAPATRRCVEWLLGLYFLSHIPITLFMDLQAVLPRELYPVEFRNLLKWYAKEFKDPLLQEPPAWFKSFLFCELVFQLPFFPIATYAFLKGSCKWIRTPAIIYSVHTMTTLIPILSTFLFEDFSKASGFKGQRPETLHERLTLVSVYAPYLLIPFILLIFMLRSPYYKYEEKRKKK
CA12: Carbonic anhydrase 12 (CA12, Homo sapiens, UniProt O43570)
Sequence of UniProt O43570 (whole entry, looked up): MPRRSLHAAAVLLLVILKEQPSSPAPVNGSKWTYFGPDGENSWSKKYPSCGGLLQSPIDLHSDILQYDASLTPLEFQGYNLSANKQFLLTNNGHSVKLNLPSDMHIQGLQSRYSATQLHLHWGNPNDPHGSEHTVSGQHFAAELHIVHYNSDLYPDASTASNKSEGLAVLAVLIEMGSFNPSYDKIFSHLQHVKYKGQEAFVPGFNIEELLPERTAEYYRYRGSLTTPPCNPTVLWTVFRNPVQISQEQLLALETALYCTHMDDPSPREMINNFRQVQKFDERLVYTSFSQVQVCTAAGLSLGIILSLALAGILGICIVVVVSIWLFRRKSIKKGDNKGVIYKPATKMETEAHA
HTR2C: 5-hydroxytryptamine receptor 2C (HTR2C, Homo sapiens, UniProt P28335)
Sequence of UniProt P28335 (whole entry, looked up): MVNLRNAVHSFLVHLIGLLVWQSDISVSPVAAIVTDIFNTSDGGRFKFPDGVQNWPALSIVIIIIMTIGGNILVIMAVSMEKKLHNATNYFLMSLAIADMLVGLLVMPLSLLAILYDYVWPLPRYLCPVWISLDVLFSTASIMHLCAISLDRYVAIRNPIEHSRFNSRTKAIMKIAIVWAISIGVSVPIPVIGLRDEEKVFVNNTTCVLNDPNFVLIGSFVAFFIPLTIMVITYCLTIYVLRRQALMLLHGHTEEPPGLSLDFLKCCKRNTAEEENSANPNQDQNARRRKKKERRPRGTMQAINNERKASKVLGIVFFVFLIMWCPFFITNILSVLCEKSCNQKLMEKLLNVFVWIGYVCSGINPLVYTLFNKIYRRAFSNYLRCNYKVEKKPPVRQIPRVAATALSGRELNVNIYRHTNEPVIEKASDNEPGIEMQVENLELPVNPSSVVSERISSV
Sequence of UniProt P00747 (whole entry, looked up): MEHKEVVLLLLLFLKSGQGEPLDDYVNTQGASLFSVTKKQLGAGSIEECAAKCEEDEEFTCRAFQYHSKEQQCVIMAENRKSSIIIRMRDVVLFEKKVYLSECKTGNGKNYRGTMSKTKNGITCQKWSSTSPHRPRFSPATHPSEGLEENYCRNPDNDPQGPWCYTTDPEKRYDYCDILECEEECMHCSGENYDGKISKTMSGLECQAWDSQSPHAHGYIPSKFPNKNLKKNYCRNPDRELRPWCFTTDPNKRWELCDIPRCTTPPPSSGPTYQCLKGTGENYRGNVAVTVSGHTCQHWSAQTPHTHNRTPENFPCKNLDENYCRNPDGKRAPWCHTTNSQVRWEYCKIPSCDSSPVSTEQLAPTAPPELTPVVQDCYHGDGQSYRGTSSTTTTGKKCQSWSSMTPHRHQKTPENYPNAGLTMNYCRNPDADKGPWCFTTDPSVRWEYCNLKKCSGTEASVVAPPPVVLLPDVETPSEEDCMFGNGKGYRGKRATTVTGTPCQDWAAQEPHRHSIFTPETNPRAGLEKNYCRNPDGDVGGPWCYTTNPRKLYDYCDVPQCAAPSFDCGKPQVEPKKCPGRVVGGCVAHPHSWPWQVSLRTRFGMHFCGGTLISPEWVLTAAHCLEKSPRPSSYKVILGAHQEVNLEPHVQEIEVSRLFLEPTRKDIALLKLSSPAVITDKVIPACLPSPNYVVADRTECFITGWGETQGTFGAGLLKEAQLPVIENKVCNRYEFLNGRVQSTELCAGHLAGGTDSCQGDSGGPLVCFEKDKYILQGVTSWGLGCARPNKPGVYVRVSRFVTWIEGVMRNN
Sequence of UniProt P07711 (whole entry, looked up): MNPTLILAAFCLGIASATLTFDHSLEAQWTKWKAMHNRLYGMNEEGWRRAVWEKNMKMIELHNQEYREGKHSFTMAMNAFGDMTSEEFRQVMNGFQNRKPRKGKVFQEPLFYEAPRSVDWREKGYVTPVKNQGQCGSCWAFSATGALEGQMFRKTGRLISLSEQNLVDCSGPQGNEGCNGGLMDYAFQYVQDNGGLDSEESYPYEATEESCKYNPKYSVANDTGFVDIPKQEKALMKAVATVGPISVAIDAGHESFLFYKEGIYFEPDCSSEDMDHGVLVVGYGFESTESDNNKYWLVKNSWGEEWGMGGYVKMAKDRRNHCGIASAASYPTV
Sequence of UniProt Q15375 (whole entry, looked up): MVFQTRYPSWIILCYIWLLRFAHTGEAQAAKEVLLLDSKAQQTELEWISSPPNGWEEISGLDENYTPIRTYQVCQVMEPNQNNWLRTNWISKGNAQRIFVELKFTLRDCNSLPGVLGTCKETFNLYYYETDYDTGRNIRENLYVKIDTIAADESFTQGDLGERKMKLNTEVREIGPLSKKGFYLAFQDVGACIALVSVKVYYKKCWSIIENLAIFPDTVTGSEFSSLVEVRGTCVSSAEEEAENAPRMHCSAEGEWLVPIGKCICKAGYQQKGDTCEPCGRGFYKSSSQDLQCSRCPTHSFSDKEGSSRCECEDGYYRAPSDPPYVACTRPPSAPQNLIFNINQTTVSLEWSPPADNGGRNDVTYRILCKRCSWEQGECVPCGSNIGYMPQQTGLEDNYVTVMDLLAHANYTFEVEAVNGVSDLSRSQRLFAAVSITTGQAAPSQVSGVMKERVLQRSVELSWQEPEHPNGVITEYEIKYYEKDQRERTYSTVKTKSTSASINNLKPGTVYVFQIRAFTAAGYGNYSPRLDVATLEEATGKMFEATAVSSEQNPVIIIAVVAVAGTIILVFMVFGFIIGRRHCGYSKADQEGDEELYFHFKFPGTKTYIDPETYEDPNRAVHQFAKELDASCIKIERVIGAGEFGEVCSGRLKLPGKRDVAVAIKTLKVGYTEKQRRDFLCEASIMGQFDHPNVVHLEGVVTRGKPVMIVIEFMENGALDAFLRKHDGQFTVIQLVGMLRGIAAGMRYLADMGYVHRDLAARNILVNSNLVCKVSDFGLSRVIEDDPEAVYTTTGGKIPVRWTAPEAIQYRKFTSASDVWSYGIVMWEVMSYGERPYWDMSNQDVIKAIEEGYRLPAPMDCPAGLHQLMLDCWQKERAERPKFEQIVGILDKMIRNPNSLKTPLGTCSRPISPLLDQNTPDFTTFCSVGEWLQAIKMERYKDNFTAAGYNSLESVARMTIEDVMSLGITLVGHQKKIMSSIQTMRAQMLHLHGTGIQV
Sequence of UniProt P60651 (whole entry, looked up): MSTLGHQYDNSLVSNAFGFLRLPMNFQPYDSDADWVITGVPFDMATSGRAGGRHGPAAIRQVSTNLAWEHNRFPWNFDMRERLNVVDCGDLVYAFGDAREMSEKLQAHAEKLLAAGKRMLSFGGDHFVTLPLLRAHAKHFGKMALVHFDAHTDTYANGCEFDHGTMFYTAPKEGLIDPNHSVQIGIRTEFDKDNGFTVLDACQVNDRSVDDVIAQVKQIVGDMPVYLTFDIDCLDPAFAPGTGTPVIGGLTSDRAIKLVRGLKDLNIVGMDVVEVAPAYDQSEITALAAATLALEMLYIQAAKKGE
Sequence of UniProt P50406 (whole entry, looked up): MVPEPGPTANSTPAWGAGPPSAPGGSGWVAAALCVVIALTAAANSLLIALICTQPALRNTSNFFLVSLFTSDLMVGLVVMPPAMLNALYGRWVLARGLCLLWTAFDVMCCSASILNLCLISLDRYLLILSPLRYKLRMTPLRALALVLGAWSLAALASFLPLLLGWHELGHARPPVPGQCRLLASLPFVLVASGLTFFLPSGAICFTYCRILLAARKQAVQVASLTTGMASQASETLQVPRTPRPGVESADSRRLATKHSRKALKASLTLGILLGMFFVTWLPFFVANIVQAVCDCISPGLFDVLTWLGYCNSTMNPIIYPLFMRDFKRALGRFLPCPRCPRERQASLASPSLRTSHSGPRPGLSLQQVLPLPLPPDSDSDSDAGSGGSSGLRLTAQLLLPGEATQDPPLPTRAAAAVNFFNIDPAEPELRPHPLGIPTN

| SMILES | target | assay | conditions | quantity | value |
| --- | --- | --- | --- | --- | --- |
| CS(=O)(=O)N[C@@H](CCC(N)=O)C(=O)N[C@@H](Cc1ccccc1)C(=O)N[C@@H](CCCNC(=N)N)C(=O)c1nccs1 | FURIN | cell-free assay | – | Ki | > 10 µM |
| O=C(Nc1ccc(I)cc1)Nc1ccc2c(c1)C=CCP(=O)(O)O2 | CA1 | enzyme activity, inhibitor, stopped-flow | – | Ki | > 10 µM |
| CC(C)C[C@H](N)C(=O)N[C@@H](Cc1c[nH]c2ccccc12)C(=O)N[C@@H](CC(=O)O)C(=O)N1CCC[C@H]1C(=O)N1CCC[C@H]1C(=O)N[C@@H](CCC(=O)O)C(=O)NCC(=O)N[C@@H](C)C(=O)N1CCC[C@H]1C(=O)O | Angiotensin-converting enzyme (ACE, Oryctolagus cuniculus, UniProt P12822) | enzyme activity, inhibitor | – | Ki | 10700 µM |
| O=C(Nc1ccc2c(c1)C=CCP(=O)(O)O2)c1ccccc1Br | CA1 | enzyme activity, inhibitor, stopped-flow | – | Ki | > 10 µM |
| OCCN1CCN(CCCN2c3ccccc3Sc3ccc(C(F)(F)F)cc32)CC1 | TMEM97 | ligand displacement, radioligand | – | Ki | 0.0666 µM |
| O=C(Nc1ccc2c(c1)C=CCP(=O)(O)O2)c1ccc(Br)cc1 | CA1 | enzyme activity, inhibitor, stopped-flow | – | Ki | > 10 µM |
| CN(C)CC[C@@H](c1ccc(Cl)cc1)c1ccccn1 | TMEM97 | ligand displacement, radioligand | – | Ki | 4.87 µM |
| CC(C)c1cc2c(c(O)c1O)[C@@]13CCCC(C)(C)[C@@H]1C[C@@H]2OC3=O | Acetylcholinesterase (ACHE, Homo sapiens, UniProt P22303) | enzyme activity, inhibitor | – | Ki | 0.0013 µM |
| COCCCC/C(=N\OCCN)c1ccc(C(F)(F)F)cc1 | TMEM97 | ligand displacement, radioligand | – | Ki | 3.37 µM |
| CO[C@H]1C[C@@H]2\C=C(C)/C=C/C=C\C(=O)N[C@H](c3ccccc3)C/C=C/CC[C@H](O)CC(=O)C2=C1O | Replicase polyprotein 1ab, main protease (Feline coronavirus, UniProt Q98VG9) | enzyme activity, inhibitor, fluorescence | – | Ki | 11.8 µM |
| COc1cc2c(cc1OC)CN(CCc1ccc(NC(=O)c3cccc4c(=O)c5cccc(OC)c5[nH]c34)cc1)CC2 | 5-hydroxytryptamine receptor 6 (HTR6, Homo sapiens, UniProt P50406) | cell-free assay | – | Ki | > 10 µM |
| C[C@H](NC(=O)[C@H](CCC(N)=O)NC(=O)CCCCNC(=N)N)C(=O)N[C@@H](CCCNC(=N)N)C(=O)c1nc2ccccc2s1 | Procathepsin L (CTSL, Homo sapiens, UniProt P07711) | cell-free assay | – | Ki | > 10 µM |
| O=C(Nc1ccccc1)Nc1ccc2c(c1)C=CCP(=O)(O)O2 | CA1 | enzyme activity, inhibitor, stopped-flow | – | Ki | > 10 µM |
| Cc1cc2c(s1)Nc1ccccc1N=C2N1CCN(C)CC1 | TMEM97 | ligand displacement, radioligand | – | Ki | > 10 µM |
| O=C(Nc1ccc2c(c1)C=CCP(=O)(O)O2)c1ccco1 | CA12 | enzyme activity, inhibitor, stopped-flow | – | Ki | 0.0097 µM |
| CC(C)(C)[C@H](Nc1nc(Cl)nc2c1ncn2[C@H]1[C@H](O)[C@H](O)[C@]2(CO)C[C@H]12)C1CC1 | HTR2C | ligand displacement, radioligand | – | Ki | 1.23 µM |

| SMILES | target | assay | conditions | quantity | value |
| --- | --- | --- | --- | --- | --- |
| COc1cc2nc(N3CCCN(C)CC3)nc(NC3CCN(Cc4ccccc4)CC3)c2cc1OC | TMEM97 | ligand displacement, radioligand | – | Ki | > 10 µM |
| O=C(Nc1ccc2c(c1)C=CCP(=O)(O)O2)c1ccc(Cl)cc1 | CA12 | enzyme activity, inhibitor, stopped-flow | – | Ki | 0.0641 µM |
| N=C(N)NCCC[C@H](NC(=O)[C@H](Cc1ccccc1)NC(=O)[C@H](CCC(N)=O)NC(=O)OCc1ccccc1)C(=O)c1nccs1 | TMPRSS13 (Homo sapiens, UniProt Q9BYE2) | cell-free assay | – | Ki | 0.09 µM |
| O=C(Nc1ccc2c(c1)C=CCP(=O)(O)O2)c1ccccc1 | CA1 | enzyme activity, inhibitor, stopped-flow | – | Ki | > 10 µM |
| CCN(CC)CCOc1ccc(C(=C(Cl)c2ccccc2)c2ccccc2)cc1 | TMEM97 | ligand displacement, radioligand | – | Ki | 0.895 µM |
| CC(C)[C@@H](Nc1nc(Cl)nc2c1ncn2[C@H]1[C@H](O)[C@H](O)[C@]2(CN=[N+]=[N-])C[C@H]12)C1CC1 | HTR2C | ligand displacement, radioligand | – | Ki | 2.91 µM |
| [2H]c1c([2H])c([C@]2([2H])CCCN2C(=O)C(C)(C)Oc2ccc3cn[nH]c3c2)c([2H])c([2H])c1C([2H])([2H])[2H] | Ephrin type-A receptor 7 (EPHA7, Homo sapiens, UniProt Q15375) | binding, competition with immobilised ligand | 1 µM | remaining binding | 72% |
| COC(=O)C1(c2ccc(C)cc2)CC1CN1CCC(O)(c2ccccc2)CC1 (centres unmarked) | TMEM97 | ligand displacement, radioligand | – | Ki | 0.303 µM |
| CC(C)(C)[C@H](NC(=O)[C@H](CCCNC(=N)N)NC(=O)Cc1ccc(CNC(=N)N)cc1)C(=O)N[C@@H](CCCCN)C(=O)NCc1ccc(C(=N)N)cc1 | Plasminogen, trypsin-like site (PLG, Homo sapiens, UniProt P00747) | enzyme activity, inhibitor | pH 8 | Ki | 8.8 µM and > 3 µM |
| COCCC(=O)N[C@@H](CCC(N)=O)C(=O)N[C@@H](Cc1ccccc1)C(=O)N[C@@H](CCCNC(=N)N)C(=O)c1nc2ccccc2s1 | FURIN | cell-free assay | – | Ki | > 10 µM |
| COc1ccc(-n2ccnc2SCC(=O)Nc2cc(C)ccc2C)c(OC)c1 | Dihydroorotate dehydrogenase (quinone), mitochondrial (PFF0160c, Plasmodium falciparum, UniProt Q08210, E182D) | enzyme activity, inhibitor, absorbance | – | IC50 | 1.14 µM |
| CC(C)=CCN=C(N)N | speB (Escherichia coli, UniProt P60651) | enzyme activity, inhibitor, absorbance | pH 6.5 | Ki | 8.03 µM |
| CN1CCN(CCc2ccc(Cl)c(Cl)c2)CC1 | TMEM97 | ligand displacement, radioligand | – | Ki | 0.354 µM |
| CCOC(=O)N[C@@H](CCCNC(=N)N)C(=O)N[C@@H](CCC(N)=O)C(=O)N[C@@H](Cc1ccccc1)C(=O)N[C@@H](CCCNC(=N)N)C(=O)c1nc2ccccc2s1 | Suppressor of tumorigenicity 14 protein (ST14, Homo sapiens, UniProt Q9Y5Y6) | cell-free assay | – | Ki | 0.00098 µM |
| O=C(Nc1ccc(F)cc1)Nc1ccc2c(c1)C=CCP(=O)(O)O2 | CA1 | enzyme activity, inhibitor, stopped-flow | – | Ki | > 10 µM |
| COCc1ccccc1C(=O)NCCOc1cc(C)cc(C)c1 | Dihydroorotate dehydrogenase (quinone), mitochondrial (PFF0160c, Plasmodium falciparum, UniProt Q08210) | enzyme activity, inhibitor, absorbance | – | IC50 | 0.235 µM |

Repeated from above:
| SMILES | target | assay | conditions | quantity | value |
| --- | --- | --- | --- | --- | --- |
| CS(=O)(=O)N[C@@H](CCC(N)=O)C(=O)N[C@@H](Cc1ccccc1)C(=O)N[C@@H](CCCNC(=N)N)C(=O)c1nccs1 | FURIN | cell-free assay | – | Ki | > 10 µM |
| O=C(Nc1ccc(I)cc1)Nc1ccc2c(c1)C=CCP(=O)(O)O2 | CA1 | enzyme activity, inhibitor, stopped-flow | – | Ki | > 10 µM |
| CC(C)C[C@H](N)C(=O)N[C@@H](Cc1c[nH]c2ccccc12)C(=O)N[C@@H](CC(=O)O)C(=O)N1CCC[C@H]1C(=O)N1CCC[C@H]1C(=O)N[C@@H](CCC(=O)O)C(=O)NCC(=O)N[C@@H](C)C(=O)N1CCC[C@H]1C(=O)O | Angiotensin-converting enzyme (ACE, Oryctolagus cuniculus, UniProt P12822) | enzyme activity, inhibitor | – | Ki | 10700 µM |
